Measured values of several laboratories.
Numbers after ± are the reported error.

N=C(N)NCCC[C@@H]1NC(=O)[C@H](Cc2ccc(O)cc2)NC(=O)[C@H](CCCNC(=N)N)NC(=O)[C@H](Cc2c[nH]cn2)NC(=O)[C@H](CC2CCCCC2)NC(=O)[C@H]2CCCN2C(=O)[C@H](C2CCCCC2)NC(=O)[C@H](CCCNC(=N)N)NC(=O)[C@H](Cc2ccc3ccccc3c2)NC(=O)[C@H](CCCNC(=N)N)NC(=O)[C@@H](N)CSSC[C@@H](C(N)=O)NC1=O — IC50 (hepatitis C virus; viral replication, Renilla luciferase reporter; Huh7.5; 48 h): 4.8e-05 µM
Cc1cccc2c1NC(=O)C2=Cc1ccc(-c2cccc(C(=O)N3CCCN(C)CC3)c2)o1 (mixture of isomers) — IC50 (Ancylostoma ceylanicum; motility; adult worms; 24 h): 7.7 µM
CC=C1NC(=O)[C@H](Cc2ccccc2)NC(=O)[C@H](C(C)C)NC(=O)[C@H](Cc2ccncc2)NC(=O)[C@H](CCC(N)=O)NC(=O)[C@H](Cc2c[nH]c3ccccc23)NC(=O)C2CSC[C@@H](C(=O)N[C@@H](CO)C(=O)O)NC(=O)[C@H](CSCC3NC(=O)[C@H]([C@@H](C)CC)NC(=O)C(NC(=O)[C@H](Cc4c[nH]cn4)NC(=O)[C@@H](NC(=O)[C@@H](NC(=O)CNC(=O)[C@H](CO)NC(=O)CNC(=O)CNC(=O)[C@@H](N)CCCCN)C(C)C)[C@@H](C)CC)C(C)SC[C@H](NC(=O)[C@H](CCC(=O)O)NC(=O)[C@H](Cc4c[nH]cn4)NC3=O)C(=O)N[C@@H](CCCNC(=N)N)C(=O)N[C@@H](CCSC)C(=O)N[C@@H](CC(N)=O)C(=O)N2)NC1=O (stereo partly shown) — IC50 (Lactococcus lactis; cell growth; HP): 0.213 ± 0.009 µM
CC#N.[Cl][Mn-2]([Cl])([Cl])[Cl].[Mn+2].c1ccc(CN2CCCN3CCCN(CCCN(Cc4ccccc4)CC3)CC2)cc1 — IC50 (Leishmania donovani; parasite growth, resazurin; 72 h, promastigote): 3.48 µM
CC(=O)Nc1cc(Nc2cc(NC3CC3)n3ncc(C#N)c3n2)ccc1N(C)Cc1ccccc1 — IC50 (murine coronavirus (MHV-nLuc); viral replication, nanoluciferase reporter; DBT): > 1 µM
N[C@H]1C[C@@H]1c1ccccc1 (racemic) — IC50 (human alphaherpesvirus 1; viral replication; HeLa): ~1000 µM
[Cl-].[Cl-].[Ni+2].c1ccc(CN2CCNCCN(Cc3ccccc3)CCNCC2)cc1 — IC50 (Leishmania donovani; THP-1-derived macrophages, intracellular amastigotes): > 20 µM
CC[C@H](C)[C@H](NC(=O)CNC(=O)[C@H](CO)NC(=O)[C@H](CC(C)C)NC(=O)[C@@H](N)Cc1ccccc1)C(=O)N[C@H](C(=O)NCC(=O)N[C@@H](CCSC)C(=O)N[C@@H](CC(C)C)C(=O)NCC(=O)N[C@@H](CCCCN)C(=O)N[C@@H](CC(C)C)C(=O)N[C@@H](Cc1ccccc1)C(N)=O)C(C)C — IC50 (Leishmania amazonensis; parasite growth; 72 h, promastigote): 8 µM
CC(=O)[O-].F[P-](F)(F)(F)(F)F.[Co+2].c1ccc(CN2CCCNCCN(Cc3ccccc3)CCCNCC2)cc1 — IC50 (Leishmania donovani; parasite growth, resazurin; 72 h, promastigote): > 15 µM
O=C(C1CCN(c2nnnn2-c2ccccc2)CC1)N1CCCc2ccccc21 — IC50 (Plasmodium falciparum; erythrocytes, Dd2, dhodh variant): 0.699 µM

For quick reference, copied from above:
CC(=O)[O-].F[P-](F)(F)(F)(F)F.[Co+2].c1ccc(CN2CCCNCCN(Cc3ccccc3)CCCNCC2)cc1 — IC50 (Leishmania donovani; parasite growth, resazurin; 72 h, promastigote): > 15 µM
